{"data": "Measured values pooled from the literature", "note": "Parts stem from different laboratories: compare values within a part only.", "sequence of UniProt P10721 (whole entry, unmodified, looked up)": "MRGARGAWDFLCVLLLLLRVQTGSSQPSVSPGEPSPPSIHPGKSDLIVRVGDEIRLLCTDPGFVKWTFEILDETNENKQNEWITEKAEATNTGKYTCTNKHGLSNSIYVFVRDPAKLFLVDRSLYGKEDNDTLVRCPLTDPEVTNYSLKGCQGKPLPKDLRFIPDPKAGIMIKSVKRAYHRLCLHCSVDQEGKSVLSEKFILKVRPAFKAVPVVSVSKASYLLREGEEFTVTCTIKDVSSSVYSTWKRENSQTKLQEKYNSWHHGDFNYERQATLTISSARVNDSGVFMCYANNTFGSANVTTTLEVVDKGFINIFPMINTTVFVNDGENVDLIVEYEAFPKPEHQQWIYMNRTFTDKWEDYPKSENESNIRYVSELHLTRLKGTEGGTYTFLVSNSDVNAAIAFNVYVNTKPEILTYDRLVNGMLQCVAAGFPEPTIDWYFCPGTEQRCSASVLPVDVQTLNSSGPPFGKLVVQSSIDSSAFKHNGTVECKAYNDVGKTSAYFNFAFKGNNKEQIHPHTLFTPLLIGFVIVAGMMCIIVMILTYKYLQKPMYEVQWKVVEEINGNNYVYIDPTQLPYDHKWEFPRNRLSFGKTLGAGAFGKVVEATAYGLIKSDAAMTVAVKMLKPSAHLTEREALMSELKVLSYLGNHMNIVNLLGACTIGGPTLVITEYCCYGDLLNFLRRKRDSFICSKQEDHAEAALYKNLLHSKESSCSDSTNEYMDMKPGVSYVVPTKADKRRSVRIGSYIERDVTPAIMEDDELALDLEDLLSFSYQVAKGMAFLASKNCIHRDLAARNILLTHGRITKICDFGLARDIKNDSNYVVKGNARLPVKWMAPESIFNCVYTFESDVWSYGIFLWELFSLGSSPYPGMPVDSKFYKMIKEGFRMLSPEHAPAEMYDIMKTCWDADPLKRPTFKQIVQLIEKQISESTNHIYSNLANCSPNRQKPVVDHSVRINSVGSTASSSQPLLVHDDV", "sequence of UniProt P22607 (whole entry, looked up)": "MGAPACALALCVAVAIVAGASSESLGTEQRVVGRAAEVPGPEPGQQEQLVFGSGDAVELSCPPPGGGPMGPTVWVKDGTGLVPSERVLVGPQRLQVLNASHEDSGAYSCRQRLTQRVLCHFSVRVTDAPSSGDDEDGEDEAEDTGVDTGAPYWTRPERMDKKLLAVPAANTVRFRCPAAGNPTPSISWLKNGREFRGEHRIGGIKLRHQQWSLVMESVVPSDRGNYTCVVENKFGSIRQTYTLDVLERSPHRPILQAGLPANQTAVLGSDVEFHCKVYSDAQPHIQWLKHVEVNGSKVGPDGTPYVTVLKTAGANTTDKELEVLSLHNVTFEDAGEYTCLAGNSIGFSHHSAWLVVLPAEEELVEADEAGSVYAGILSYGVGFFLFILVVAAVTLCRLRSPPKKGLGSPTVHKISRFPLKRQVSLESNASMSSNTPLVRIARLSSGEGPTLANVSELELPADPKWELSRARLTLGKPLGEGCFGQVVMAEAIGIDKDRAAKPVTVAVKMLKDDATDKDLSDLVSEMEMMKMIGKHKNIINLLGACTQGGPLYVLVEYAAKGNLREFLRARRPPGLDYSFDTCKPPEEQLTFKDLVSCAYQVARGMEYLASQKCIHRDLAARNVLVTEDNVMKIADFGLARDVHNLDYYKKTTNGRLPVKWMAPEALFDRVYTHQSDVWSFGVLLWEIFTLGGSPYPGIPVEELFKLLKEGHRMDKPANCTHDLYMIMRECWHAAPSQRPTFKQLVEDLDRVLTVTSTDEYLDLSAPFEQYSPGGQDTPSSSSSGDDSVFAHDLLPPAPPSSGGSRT", "sequence of UniProt Q9UK32 (whole entry, looked up)": "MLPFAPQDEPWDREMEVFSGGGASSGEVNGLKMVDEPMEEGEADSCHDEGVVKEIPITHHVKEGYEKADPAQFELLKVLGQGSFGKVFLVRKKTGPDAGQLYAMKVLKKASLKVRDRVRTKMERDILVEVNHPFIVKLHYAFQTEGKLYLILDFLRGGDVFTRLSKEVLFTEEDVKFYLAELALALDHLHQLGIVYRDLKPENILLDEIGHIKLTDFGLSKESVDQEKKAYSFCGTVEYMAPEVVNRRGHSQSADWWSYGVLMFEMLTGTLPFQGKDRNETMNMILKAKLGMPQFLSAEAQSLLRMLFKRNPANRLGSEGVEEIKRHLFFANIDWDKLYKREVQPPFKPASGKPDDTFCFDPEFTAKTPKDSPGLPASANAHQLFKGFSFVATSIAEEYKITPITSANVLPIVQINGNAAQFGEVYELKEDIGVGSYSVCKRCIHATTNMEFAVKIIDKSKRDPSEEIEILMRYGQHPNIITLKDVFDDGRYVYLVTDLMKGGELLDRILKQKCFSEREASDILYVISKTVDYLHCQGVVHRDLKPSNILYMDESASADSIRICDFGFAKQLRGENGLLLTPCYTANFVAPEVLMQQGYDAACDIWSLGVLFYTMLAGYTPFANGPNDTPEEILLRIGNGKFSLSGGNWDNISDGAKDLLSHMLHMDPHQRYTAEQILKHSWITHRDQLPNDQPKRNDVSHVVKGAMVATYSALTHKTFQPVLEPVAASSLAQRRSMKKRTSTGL", "sequence of UniProt Q8NI60 (whole entry, looked up)": "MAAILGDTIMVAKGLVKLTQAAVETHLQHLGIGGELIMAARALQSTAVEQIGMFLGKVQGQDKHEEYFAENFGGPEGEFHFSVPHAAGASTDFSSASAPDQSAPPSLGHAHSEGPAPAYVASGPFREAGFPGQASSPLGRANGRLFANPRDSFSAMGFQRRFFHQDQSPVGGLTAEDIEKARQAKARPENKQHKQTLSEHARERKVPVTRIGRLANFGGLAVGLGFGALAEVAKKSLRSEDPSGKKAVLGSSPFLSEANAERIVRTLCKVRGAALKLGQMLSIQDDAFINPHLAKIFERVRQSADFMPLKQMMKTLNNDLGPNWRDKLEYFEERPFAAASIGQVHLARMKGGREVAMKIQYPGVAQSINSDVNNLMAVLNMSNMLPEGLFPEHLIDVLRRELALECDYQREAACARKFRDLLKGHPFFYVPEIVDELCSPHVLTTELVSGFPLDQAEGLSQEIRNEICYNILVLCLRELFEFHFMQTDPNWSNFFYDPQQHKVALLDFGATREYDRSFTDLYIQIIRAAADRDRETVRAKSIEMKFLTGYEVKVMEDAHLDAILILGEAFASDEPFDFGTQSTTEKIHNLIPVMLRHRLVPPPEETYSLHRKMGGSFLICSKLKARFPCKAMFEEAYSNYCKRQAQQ", "sequence of UniProt P42336 (whole entry, unmodified, looked up)": "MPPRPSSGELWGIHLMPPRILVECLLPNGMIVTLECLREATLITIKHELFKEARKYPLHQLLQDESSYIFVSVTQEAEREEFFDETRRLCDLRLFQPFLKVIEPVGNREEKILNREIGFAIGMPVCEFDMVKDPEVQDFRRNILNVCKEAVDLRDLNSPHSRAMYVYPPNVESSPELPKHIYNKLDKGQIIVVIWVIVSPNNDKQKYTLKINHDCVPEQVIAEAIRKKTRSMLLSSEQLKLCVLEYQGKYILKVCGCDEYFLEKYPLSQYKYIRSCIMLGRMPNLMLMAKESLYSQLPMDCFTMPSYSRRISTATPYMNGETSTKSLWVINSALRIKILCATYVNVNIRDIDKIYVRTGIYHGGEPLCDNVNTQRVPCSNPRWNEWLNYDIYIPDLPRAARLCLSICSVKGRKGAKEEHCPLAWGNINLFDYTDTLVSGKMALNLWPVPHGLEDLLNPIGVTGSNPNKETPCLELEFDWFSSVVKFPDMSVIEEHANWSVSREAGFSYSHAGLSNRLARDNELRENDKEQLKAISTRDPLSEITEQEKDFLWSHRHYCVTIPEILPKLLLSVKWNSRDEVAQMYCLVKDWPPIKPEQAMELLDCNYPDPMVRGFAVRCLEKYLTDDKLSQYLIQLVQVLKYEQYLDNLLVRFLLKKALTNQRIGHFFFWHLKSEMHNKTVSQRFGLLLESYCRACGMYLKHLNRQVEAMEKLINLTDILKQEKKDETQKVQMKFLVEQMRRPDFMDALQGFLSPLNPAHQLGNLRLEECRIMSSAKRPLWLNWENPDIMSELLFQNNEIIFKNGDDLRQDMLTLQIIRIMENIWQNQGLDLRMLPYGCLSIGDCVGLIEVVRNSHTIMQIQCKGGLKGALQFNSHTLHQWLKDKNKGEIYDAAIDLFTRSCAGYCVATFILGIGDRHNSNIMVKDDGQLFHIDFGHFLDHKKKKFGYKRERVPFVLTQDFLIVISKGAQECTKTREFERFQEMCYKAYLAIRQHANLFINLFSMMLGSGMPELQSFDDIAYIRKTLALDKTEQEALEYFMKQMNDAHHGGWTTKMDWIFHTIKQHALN"}
{"data": "Set 1", "target": "Beta-1 adrenergic receptor (ADRB1, Homo sapiens, UniProt P08588)", "action": "antagonist", "sequence of UniProt P08588 (whole entry, looked up)": "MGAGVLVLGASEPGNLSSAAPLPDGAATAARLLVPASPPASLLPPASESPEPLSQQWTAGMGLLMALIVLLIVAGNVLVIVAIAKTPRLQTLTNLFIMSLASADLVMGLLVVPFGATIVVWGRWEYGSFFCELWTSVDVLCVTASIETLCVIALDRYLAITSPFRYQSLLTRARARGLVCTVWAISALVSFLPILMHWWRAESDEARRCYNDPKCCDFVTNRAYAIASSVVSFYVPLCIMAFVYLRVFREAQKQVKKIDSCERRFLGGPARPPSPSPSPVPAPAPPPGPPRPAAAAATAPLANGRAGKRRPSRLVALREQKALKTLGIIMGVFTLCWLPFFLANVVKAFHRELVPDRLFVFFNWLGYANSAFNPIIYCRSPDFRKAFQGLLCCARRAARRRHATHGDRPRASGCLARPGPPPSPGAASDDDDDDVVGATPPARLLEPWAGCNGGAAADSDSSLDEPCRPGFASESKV"}
{"Compound": "COc1ccccc1N1CCN(CC(=O)NC2CCN(C3CC3)CC2)CC1", "IC50": "≥ 100 µM"}
{"Compound": "COc1ccccc1N1CCC(N2C(=O)N3CCCC3(C)C2=O)C1 (stereo not shown)", "IC50": "≥ 100 µM"}
{"Compound": "O=[S+]([O-])(NCc1cccc2ccccc12)c1cc(Cl)c(Oc2cccc(N3CCNCC3)c2)s1", "IC50": "≥ 100 µM"}
{"Compound": "CC(CNc1nc(C(C)C)nc2c1cnn2C)Oc1cccnc1 (stereo not shown)", "IC50": "≥ 100 µM"}
{"Compound": "Cn1c(=O)n(-c2ccc(N3CCN(C(=O)OC(C)(C)C)CC3)c(C(F)(F)F)c2)c2c3cc(-c4cncc5ccccc45)ccc3ncc21", "IC50": "≥ 100 µM"}
{"Compound": "CC(CCc1ccc(O)cc1)NCC(O)c1ccc(O)cc1 (stereo not shown)", "IC50": "≥ 100 µM"}
{"Compound": "OC(COc1cccc(CN2CCC(c3ncon3)CC2)c1)CN1CCOCC1 (stereo not shown)", "IC50": "≥ 100 µM"}
{"Compound": "CCOc1ccc(C(=O)N2CCc3cc(OC)c(OC)cc3C2COc2ccc3c(C)cc(=O)oc3c2)cc1OCC (stereo not shown)", "IC50": "≥ 100 µM"}
{"Compound": "O=c1ccc2cc(O)c(O)cc2o1", "IC50": "≥ 100 µM"}
{"Compound": "O=C(CSc1nc2ccccc2n1CCc1ccccc1)c1ccc(O)c(O)c1", "IC50": "≥ 100 µM"}
{"Compound": "Cn1cc(-c2cnc(NC(=O)c3cccnc3)c3c2CCO3)cn1", "IC50": "≥ 100 µM"}
{"Compound": "N#C/C(=C\\c1ccc(O)c(O)c1)C(=O)NCCCCc1ccccc1", "IC50": "≥ 100 µM"}
{"Compound": "Cc1noc2c(-c3cccnc3NCCN(C)C)cc(-c3ccccc3)nc12", "IC50": "≥ 100 µM"}
{"data": "Set 2", "target": "NUAK family SNF1-like kinase 2 (NUAK2, Homo sapiens, UniProt Q9H093)", "effect on": "enzyme activity", "action": "inhibitor", "concentration": "0.5 µM", "baseline": "control", "Construct (Q9H093 1-628)": "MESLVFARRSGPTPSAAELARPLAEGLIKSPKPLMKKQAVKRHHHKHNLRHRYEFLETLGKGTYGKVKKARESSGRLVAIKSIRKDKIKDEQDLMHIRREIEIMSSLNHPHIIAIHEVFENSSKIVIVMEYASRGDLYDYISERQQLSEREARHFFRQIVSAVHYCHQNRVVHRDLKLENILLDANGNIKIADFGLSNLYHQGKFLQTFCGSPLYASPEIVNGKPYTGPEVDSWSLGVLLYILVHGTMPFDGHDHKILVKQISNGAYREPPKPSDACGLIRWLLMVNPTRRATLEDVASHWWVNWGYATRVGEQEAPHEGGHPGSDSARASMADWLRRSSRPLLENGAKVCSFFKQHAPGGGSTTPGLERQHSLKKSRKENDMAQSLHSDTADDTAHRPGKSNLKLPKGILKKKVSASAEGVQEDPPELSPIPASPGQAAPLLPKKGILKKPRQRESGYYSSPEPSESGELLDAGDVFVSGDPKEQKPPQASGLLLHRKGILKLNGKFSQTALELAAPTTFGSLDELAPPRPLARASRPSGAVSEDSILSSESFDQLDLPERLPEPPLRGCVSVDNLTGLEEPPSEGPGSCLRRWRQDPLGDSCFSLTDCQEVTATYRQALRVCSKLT"}
{"SMILES": "O=C1Cc2c([nH]c3ccc([N+](=O)[O-])cc23)-c2ccccc2N1", "remaining activity": "68.6%"}
{"SMILES": "O=C1NC(=O)C(c2c[nH]c3ccccc23)=C1c1c[nH]c2ccccc12", "remaining activity": "86%"}
{"SMILES": "N#CC(=C(N)Sc1ccc(N)cc1)c1ccccc1C(F)(F)F", "remaining activity": "75%"}
{"SMILES": "CC#CC(=O)Nc1cc2c(Nc3ccc(F)c(Cl)c3)ncnc2cn1", "remaining activity": "95.4%"}
{"SMILES": "CC(C)(C)n1nc(Cc2cccc3ccccc23)c2c(N)ncnc21", "remaining activity": "82%"}
{"SMILES": "CCCC(=O)Oc1ccc2[nH]c(C(=O)c3cc4ccccc4[nH]3)cc2c1", "remaining activity": "73.4%"}
{"SMILES": "Cc1cncc2cccc(S(=O)(=O)N3CCCN(C(=O)CN)C[C@@H]3C)c12", "remaining activity": "125%"}
{"SMILES": "CSc1nc(-c2ccnc(N[C@@H](C)c3ccccc3)c2)c(-c2ccc(F)cc2)[nH]1 (racemic)", "remaining activity": "86.5%"}
{"SMILES": "CC(=O)c1ccc(N2CCOCC2)cc1O", "remaining activity": "104%"}
{"SMILES": "Nc1ncnc2c1cnn2-c1ccccc1", "remaining activity": "75.2%"}
{"SMILES": "Nc1nccc(-c2c(-c3ccc(F)cc3)ncn2C2CCNCC2)n1", "remaining activity": "122%"}
{"SMILES": "COc1ccc(S(=O)(=O)N(CCO)c2ccccc2CN(C)CC=Cc2ccc(Cl)cc2)cc1", "remaining activity": "113%"}
{"SMILES": "Fc1ccc(-c2nc3n(c2-c2ccncc2)CCS3)cc1", "remaining activity": "135%"}
{"SMILES": "Oc1ccc(Nc2nc(-c3ccc(Cl)cc3)cs2)cc1", "remaining activity": "137%"}
{"SMILES": "O=S(=O)(NCCNC/C=C/c1ccc(Br)cc1)c1cccc2cnccc12", "remaining activity": "78.1%"}
{"SMILES": "NC(=O)c1ccc(N(C(N)=O)c2c(F)cccc2F)nc1-c1ccc(F)cc1F", "remaining activity": "98.7%"}
{"SMILES": "Cc1cc(Nc2nc(-c3ccccc3)nc3ccccc23)n[nH]1", "remaining activity": "71.1%"}
{"SMILES": "Cc1ccc(NC2=CC(=O)c3sc(C)nc3C2=O)cc1", "remaining activity": "105%"}
{"SMILES": "CC[n+]1c(/C=C/N(C)c2ccccc2)n(-c2ccccc2)c2ccc(-c3nc4ccccc4s3)cc21", "remaining activity": "93.3%"}
{"SMILES": "Nc1nc(Nc2ccc(S(N)(=O)=O)cc2)nn1C(=O)c1c(F)cccc1F", "remaining activity": "34%"}
{"SMILES": "CCc1[nH]c(-c2ccc(OC)cc2)nc1-c1ccncc1", "remaining activity": "129%"}
{"data": "Set 3", "Structure (SMILES)": "O=C1CCc2cc(Nc3cc(OC4CCOCC4)c([N+](=O)[O-])cc3Cl)ccc2N1", "effect on": "cell-free assay", "method": "competition with immobilised ligand", "concentration": "1 µM"}
{"target": "DCLK1 (Homo sapiens, UniProt O15075)", "remaining binding [%]": 95}
{"target": "Mast/stem cell growth factor receptor Kit, autoinhibited (KIT, Homo sapiens, UniProt P10721)", "remaining binding [%]": 99}
{"target": "ACVRL1 (Homo sapiens, UniProt P37023)", "remaining binding [%]": 93}
{"target": "MARK1 (Homo sapiens, UniProt Q9P0L2)", "remaining binding [%]": 99}
{"target": "KIT (Homo sapiens, UniProt P10721, V559D)", "remaining binding [%]": 100}
{"target": "TLK2 (Homo sapiens, UniProt Q86UE8)", "remaining binding [%]": 81}
{"target": "FLT3 (Homo sapiens, UniProt P36888, F691L/ITD)", "remaining binding [%]": 89}
{"target": "TRPM6 (Homo sapiens, UniProt Q9BX84)", "remaining binding [%]": 100}
{"target": "Ribosomal protein S6 kinase alpha-6, N-terminal kinase domain (RPS6KA6, Homo sapiens, UniProt Q9UK32)", "remaining binding [%]": 77}
{"target": "PIK3CA (Homo sapiens, UniProt P42336, M1043I)", "remaining binding [%]": 94}
{"target": "PRKAA1 (Homo sapiens, UniProt Q13131)", "remaining binding [%]": 100}
{"target": "Tyrosine-protein kinase ABL1, phosphorylated (ABL1, Homo sapiens, UniProt P00519, H396P)", "remaining binding [%]": 85}
{"target": "FGFR3 (Homo sapiens, UniProt P22607)", "remaining binding [%]": 100}
{"target": "COQ8A (Homo sapiens, UniProt Q8NI60)", "remaining binding [%]": 100}
{"target": "DYRK2 (Homo sapiens, UniProt Q92630)", "remaining binding [%]": 97}
{"target": "eIF-2-alpha kinase GCN2, C-terminal kinase domain (EIF2AK4, Homo sapiens, UniProt Q9P2K8, S808G)", "remaining binding [%]": 85}
{"data": "Set 4", "species": "mouse", "sample": "microsomes or S9", "concentration": "2 µM", "time": "0.5 h"}
{"SMILES": "N[C@@H](CC(=O)N1CCCCCN1C(=O)CN1CCc2ccccc2C1)Cc1cc(F)c(F)cc1F", "remaining compound [%]": 6.47}
{"SMILES": "CCc1nn2c(c1-c1ccc(C)c(S(=O)(=O)N(C)c3ccc(C)c(C)c3)c1)NC(=O)CCC2=O", "remaining compound [%]": 77.8}
{"SMILES": "COc1ccccc1NC(=O)C1c2ccccc2Oc2ccccc21", "remaining compound [%]": 0.643}
{"SMILES": "CN1N=C(c2ccc(-n3cncn3)cc2)CC1c1cnn(C)c1 (stereo not shown)", "remaining compound [%]": 59.1}
{"SMILES": "Cc1ccc(S(=O)(=O)N2CCCC(C(=O)Nc3ccc4c(c3)OCCO4)C2)cc1 (stereo not shown)", "remaining compound [%]": 21.9}
{"SMILES": "CCOc1cc(=O)n2c(c1C(=O)NC1CCN(Cc3ccccc3)CC1)CCCCC2", "remaining compound [%]": 49.2}
{"SMILES": "Cc1nc(C)c(S(=O)(=O)N(C)CC(C)(C)O)s1", "remaining compound [%]": 36.2}
{"SMILES": "Cc1ncn(CCS(=O)(=O)c2ccc(C(C)(C)C)cc2)c(=O)c1C", "remaining compound [%]": 29.2}
{"SMILES": "CN1C(=O)c2ccccc2C(C(=O)Nc2nc3ccccc3[nH]2)C1c1ccccc1 (stereo not shown)", "remaining compound [%]": 24}
{"SMILES": "Cn1cncc1-c1cccc(-c2cn3cccc(C#N)c3n2)c1", "remaining compound [%]": 46.6}
{"SMILES": "CCC(C)C1Nc2ccc(C(=O)NCC(C)CN(CC)CC)cc2NC1=O (stereo not shown)", "remaining compound [%]": 47.8}
{"note": "Repeated from above (set 4):"}
{"SMILES": "N[C@@H](CC(=O)N1CCCCCN1C(=O)CN1CCc2ccccc2C1)Cc1cc(F)c(F)cc1F", "remaining compound [%]": 6.47}
{"SMILES": "CCc1nn2c(c1-c1ccc(C)c(S(=O)(=O)N(C)c3ccc(C)c(C)c3)c1)NC(=O)CCC2=O", "remaining compound [%]": 77.8}
{"SMILES": "COc1ccccc1NC(=O)C1c2ccccc2Oc2ccccc21", "remaining compound [%]": 0.643}
{"SMILES": "CN1N=C(c2ccc(-n3cncn3)cc2)CC1c1cnn(C)c1 (stereo not shown)", "remaining compound [%]": 59.1}
{"SMILES": "Cc1ncn(CCS(=O)(=O)c2ccc(C(C)(C)C)cc2)c(=O)c1C", "remaining compound [%]": 29.2}
{"SMILES": "CCC(C)C1Nc2ccc(C(=O)NCC(C)CN(CC)CC)cc2NC1=O (stereo not shown)", "remaining compound [%]": 47.8}
{"SMILES": "Cc1nc(C)c(S(=O)(=O)N(C)CC(C)(C)O)s1", "remaining compound [%]": 36.2}
{"SMILES": "Cc1ccc(S(=O)(=O)N2CCCC(C(=O)Nc3ccc4c(c3)OCCO4)C2)cc1 (stereo not shown)", "remaining compound [%]": 21.9}
{"SMILES": "Cn1cncc1-c1cccc(-c2cn3cccc(C#N)c3n2)c1", "remaining compound [%]": 46.6}
